Results pooled from the literature.
Every numbered part comes from another study and shows a few of its results, in no order. Numbers after ± are the reported error.

Block 1 — target: HIV-1 TAR RNA; tested at: concentration not given; temperature: 25 °C; quantity: binding enthalpy ΔH°
CC(=O)NCCN(CC(=O)NCCN(CC(=O)NCCN(CC(=O)NCCC(N)=O)C(=O)[C@@H](N)CCCNC(=N)N)C(=O)[C@@H](N)CCCNC(=N)N)C(=O)[C@@H](N)Cc1ccccc1: -14.4 ± 0.43 kcal/mol
CC(=O)NCCN(CC(=O)NCCN(CC(=O)NCCN(CC(=O)NCCC(N)=O)C(=O)C[C@@H](N)Cc1ccccc1)C(=O)C[C@@H](N)Cc1ccccc1)C(=O)C[C@@H](N)CCCNC(=N)N: -6.43 ± 0.191 kcal/mol
CC(=O)NCCN(CC(=O)NCCN(CC(=O)NCCN(CC(=O)NCCC(N)=O)C(=O)[C@@H](N)Cc1ccccc1)C(=O)[C@@H](N)CCCNC(=N)N)C(=O)[C@@H](N)CCCNC(=N)N: -13 ± 0.263 kcal/mol

Block 2 — cell line: TZM-bl; quantity: IC50
Structure (SMILES): CNCc1ccc2c(c1)C[C@H](CNC(=N)N)[C@H]2NC(=O)C(=O)Nc1ccc(Cl)c(F)c1
env (Human immunodeficiency virus 1, UniProt Q27Q69); pseudovirus infection, luciferase reporter; 48 h: 1740 nM
env (Human immunodeficiency virus 1, UniProt Q27Q59); pseudovirus infection, luciferase reporter; 48 h: 794 nM
env (Human immunodeficiency virus 1, UniProt Q5G5U9); pseudovirus infection, luciferase reporter; 48 h: 17200 nM
env (Human immunodeficiency virus 1, UniProt Q202J8); pseudovirus infection, luciferase reporter; 48 h: > 100000 nM
Human immunodeficiency virus 1; viral infection, Env pseudovirus; 1054_07_TC4_1499 clade B T/F: 171 nM

Further values, each from its own experiment
F[P-](F)(F)(F)(F)F.OC(Cn1cncn1)(Cn1cc(-[c-]2cccc2)nn1)c1ccc(F)cc1F.[Co+3].c1cc[cH-]c1 (racemic)
MIC50 (Candida glabrata; EUCAST): 100 µM

C[C@H](Nc1ncnc(N)c1C#N)c1c(-c2ccccc2)[nH]c2c(Cl)cccc2c1=O
Tmax (CB17 SCID mice, xenograft, plasma; oral, 50 mg/kg once daily, day 14): 1.3 ± 0.6 h

Excerpt of the above (further values, each from its own experiment):
C[C@H](Nc1ncnc(N)c1C#N)c1c(-c2ccccc2)[nH]c2c(Cl)cccc2c1=O
Tmax (CB17 SCID mice, xenograft, plasma; oral, 50 mg/kg once daily, day 14): 1.3 ± 0.6 h
